Measurements gathered from unrelated publications.
Parts stem from different laboratories: compare values within a part only.

Sample 1 — technique: protein-binding microarray; form: double-stranded DNA, one strand shown; medium: in vitro; tested at: 940 nM top; notes: 60-bp whole probe; with: salmon DNA 0.4 mg/ml; relative to: random background probes; reading: higher = stronger binding
Target: Interferon regulatory factor 5, full length, phosphomimetic (IRF5, Homo sapiens, UniProt Q13568-2, residues 1-514, S451D/S453D/S456D/S462D)
Shared flanks, not repeated: GCCTAGCAC … GTGCTAGGTCTTGATTCGCTTGACGCTGCTG
Oligonucleotide	fitted relative affinity
TTAGATCTCGGTCTCGATTA	3.19 z-score
GACGGTCTCATACTGCTGAC	0.557 z-score
GACGGACTGAGACTGGGGAC	-0.287 z-score
GACGGTATCGGTATCGCGAC	8.58 z-score
TGCATTTTTTTTTTCTACTT	1.52 z-score

Sample 2 — technique: RNA Bind-n-Seq; form: RNA; medium: in vitro; tested at: 200 nM; notes: whole 134-nt RNA, ends assumed; with: 150 mM LiCl; relative to: input library; reading: higher = stronger binding; library: 7-deaza-guanosine replaces G
Target: Ras GTPase-activating protein-binding protein 1, full length (G3BP1, Homo sapiens, UniProt Q13283)
UniProt Q13283, sequence (whole entry, looked up): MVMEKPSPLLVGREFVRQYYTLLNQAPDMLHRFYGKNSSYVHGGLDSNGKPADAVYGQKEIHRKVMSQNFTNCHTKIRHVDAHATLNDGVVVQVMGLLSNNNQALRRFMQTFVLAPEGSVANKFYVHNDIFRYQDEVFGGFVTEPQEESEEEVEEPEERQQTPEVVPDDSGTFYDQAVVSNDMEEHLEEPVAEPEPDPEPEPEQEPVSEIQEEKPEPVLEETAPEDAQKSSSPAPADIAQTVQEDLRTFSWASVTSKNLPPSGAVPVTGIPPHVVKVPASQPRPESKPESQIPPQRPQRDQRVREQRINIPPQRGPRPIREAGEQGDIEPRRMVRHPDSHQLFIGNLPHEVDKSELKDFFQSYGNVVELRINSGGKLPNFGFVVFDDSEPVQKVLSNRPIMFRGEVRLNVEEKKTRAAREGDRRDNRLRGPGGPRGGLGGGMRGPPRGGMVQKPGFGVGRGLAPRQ
Shared flanks, not repeated: GGGAGUUCUACAGUCCGACGAUC … UGGAAUUCUCGGGUGUCAAGG
Oligonucleotide	log2 enrichment
UGGCCCUGGUGGCAUGCGGGGAGGAAGAGGUGGCCUCAUGUAUCGUGGUGGUCCCGGUGGAAUGUUCAGAGGUGGCCGUGGUGGAGACAG	0.0395
CAAGUCCUGUGCUACACAUCGUAUGUACCGAAUCGGGUGGGUGGGAAAAAAAGGGAAAGUAUUAUGUUACGCCGUUCGGAUCUGCACUUC	-0.276
GCAGGAAGUAAAAACAAAUGGAAGUGCUUCGGAUAGUGGCAGGGGUGGGGGUUGCUAAGGAAAGGGUGGGAUGGGAGUGGGUAAAGAGUU	-0.0401
UUGUCUACAGAACUAGACAGUACGGAUGGUGCCAAAGUUUUUAGUAAACAACCAGGAAGAAUCCAAAGAGUAGCAAGAGGAUCGGGUGUA	-2.27
AAGUCCUGUGCUACACAUCGUAUGUACCGAAUCAAAUUUUUAAAUUUAAACCCAAAAAAGUAUUAUGUUACGCCGUUCGGAUCUGCACUU	0.266
GUCCUGUGCUACACAUCGUAUGUACCGAAUCGGCCCCCCGGCCCCCCGGCCCCCCGGGAAAGUAUUAUGUUACGCCGUUCGGAUCUGCAC	-0.167
UGGCCCUGGUGGCAUGCGGGGAGGAAGAGGUGGCCUCAUGGCUCGUGGUGGUCCCGGUGGAAUGUUCAGAGGUGGCCGUGGUGGAGACAG	-0.126
CACAGACAACACGCACCCACACAGACACAGAGGGAAGGGGUUGGGAAAGGGACAGGGUGCACAGCAGGGCGGGGUAGGACCCCAGCCCCU	0.368
UCAAGUCCUGUGCUACACAUCGUAUGUACCGAAUCGGGUUUGGGAAAGGGAGGGAAAGUAUUAUGUUACGCCGUUCGGAUCUGCACUUCC	-0.45
UGGCCCUGGUGGCAUGCGGGGAGGAAGAGGUGGCCUCAUGGAUCGUGGUGGUCCUGGUGGAAUGUUCAGAGGUGGCCGUGGUGGAGACAG	0.371

Sample 3 — technique: protein binding microarray; form: double-stranded DNA, one strand shown; medium: in vitro; tested at: not given; relative to: not given; reading: higher = stronger binding
Target: Histone acetyltransferase KAT6A, winged helix 1, GST fusion (KAT6A, Homo sapiens, UniProt Q92794, residues 1-85)
Notes: 8-mer, flanks averaged, mean of 2 arrays, mostly near background
Target sequence (chain): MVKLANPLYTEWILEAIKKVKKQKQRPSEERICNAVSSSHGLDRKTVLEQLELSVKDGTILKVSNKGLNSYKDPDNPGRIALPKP
Oligonucleotide	E-score
GCCATCAA	-0.0571
AGAGCTAT	-0.0762
AATGGCCC	-0.00724
TATGGACA	-0.104
AGCATGCC	0.11
CTAATTAA	-0.0616
GGTCTCCA	-0.164

Other studies, line by line
Molecule	target	assay	system	conditions	scale	endpoint	value
PhoQ, residues 284 288 289 292 302 303 TNASYF	PhoP, residues 12 14 15 18 19 TPLRH (Escherichia coli, UniProt P23836)	Sort-seq, measured: YFP reporter	E. coli	PhoQ-PhoP variant library, with: 10 µM Mg2+	relative to: high Mg2+ state, higher = stronger signaling	fold induction	1.26
